Experimental data gathered from unrelated publications.
Every numbered part comes from another study and shows a few of its results, in no order.
UniProt P11309, sequence (whole entry, looked up): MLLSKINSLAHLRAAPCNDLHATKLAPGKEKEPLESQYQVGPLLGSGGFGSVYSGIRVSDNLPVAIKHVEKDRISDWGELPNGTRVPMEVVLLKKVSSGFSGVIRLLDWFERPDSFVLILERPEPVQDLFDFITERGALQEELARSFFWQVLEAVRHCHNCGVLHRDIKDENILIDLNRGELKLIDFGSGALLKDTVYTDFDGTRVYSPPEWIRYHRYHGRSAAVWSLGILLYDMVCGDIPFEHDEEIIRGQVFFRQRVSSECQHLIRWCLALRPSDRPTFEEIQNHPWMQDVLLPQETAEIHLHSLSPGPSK
UniProt Q9Y5S2, sequence (whole entry, looked up): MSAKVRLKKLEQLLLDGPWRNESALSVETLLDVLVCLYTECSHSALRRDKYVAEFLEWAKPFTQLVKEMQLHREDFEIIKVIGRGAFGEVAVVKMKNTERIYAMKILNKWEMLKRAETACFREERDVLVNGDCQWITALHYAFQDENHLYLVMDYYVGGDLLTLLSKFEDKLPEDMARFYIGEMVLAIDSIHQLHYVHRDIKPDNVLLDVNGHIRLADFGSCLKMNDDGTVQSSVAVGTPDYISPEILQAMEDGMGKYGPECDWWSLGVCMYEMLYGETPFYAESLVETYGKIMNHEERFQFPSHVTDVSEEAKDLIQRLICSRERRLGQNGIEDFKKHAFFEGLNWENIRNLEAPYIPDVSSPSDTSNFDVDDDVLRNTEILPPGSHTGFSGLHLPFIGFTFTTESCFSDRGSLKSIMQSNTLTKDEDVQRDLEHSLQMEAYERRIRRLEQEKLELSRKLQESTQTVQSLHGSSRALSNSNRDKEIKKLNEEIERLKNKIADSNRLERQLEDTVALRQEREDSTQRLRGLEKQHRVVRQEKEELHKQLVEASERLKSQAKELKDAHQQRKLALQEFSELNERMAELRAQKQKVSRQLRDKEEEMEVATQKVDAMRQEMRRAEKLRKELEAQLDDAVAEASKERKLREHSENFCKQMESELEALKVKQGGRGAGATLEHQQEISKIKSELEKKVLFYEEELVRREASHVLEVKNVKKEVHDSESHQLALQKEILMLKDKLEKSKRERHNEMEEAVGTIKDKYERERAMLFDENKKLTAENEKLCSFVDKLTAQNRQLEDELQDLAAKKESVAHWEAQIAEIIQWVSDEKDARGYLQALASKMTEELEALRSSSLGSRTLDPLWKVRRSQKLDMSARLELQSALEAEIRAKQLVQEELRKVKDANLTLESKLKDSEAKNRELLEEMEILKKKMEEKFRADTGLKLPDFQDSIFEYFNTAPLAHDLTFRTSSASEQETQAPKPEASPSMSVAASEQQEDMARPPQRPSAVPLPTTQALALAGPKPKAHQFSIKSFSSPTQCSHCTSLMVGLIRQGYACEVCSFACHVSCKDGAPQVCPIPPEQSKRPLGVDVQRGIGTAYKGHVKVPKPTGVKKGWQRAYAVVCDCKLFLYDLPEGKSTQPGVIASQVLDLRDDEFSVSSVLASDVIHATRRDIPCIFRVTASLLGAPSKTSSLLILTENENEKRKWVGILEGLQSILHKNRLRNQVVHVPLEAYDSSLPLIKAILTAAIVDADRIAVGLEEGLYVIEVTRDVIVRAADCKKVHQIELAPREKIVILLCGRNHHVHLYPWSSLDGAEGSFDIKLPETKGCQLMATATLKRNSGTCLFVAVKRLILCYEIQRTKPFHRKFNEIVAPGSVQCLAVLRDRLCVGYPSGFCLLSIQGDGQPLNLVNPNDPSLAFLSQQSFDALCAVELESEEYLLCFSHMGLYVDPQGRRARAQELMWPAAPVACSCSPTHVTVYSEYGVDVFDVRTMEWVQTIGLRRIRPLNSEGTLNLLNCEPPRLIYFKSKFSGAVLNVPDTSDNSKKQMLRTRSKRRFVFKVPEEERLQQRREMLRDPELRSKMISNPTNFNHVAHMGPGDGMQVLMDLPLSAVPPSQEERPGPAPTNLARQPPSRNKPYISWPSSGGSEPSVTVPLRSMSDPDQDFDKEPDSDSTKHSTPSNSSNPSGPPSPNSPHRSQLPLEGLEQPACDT
UniProt P19784, sequence (whole entry, looked up): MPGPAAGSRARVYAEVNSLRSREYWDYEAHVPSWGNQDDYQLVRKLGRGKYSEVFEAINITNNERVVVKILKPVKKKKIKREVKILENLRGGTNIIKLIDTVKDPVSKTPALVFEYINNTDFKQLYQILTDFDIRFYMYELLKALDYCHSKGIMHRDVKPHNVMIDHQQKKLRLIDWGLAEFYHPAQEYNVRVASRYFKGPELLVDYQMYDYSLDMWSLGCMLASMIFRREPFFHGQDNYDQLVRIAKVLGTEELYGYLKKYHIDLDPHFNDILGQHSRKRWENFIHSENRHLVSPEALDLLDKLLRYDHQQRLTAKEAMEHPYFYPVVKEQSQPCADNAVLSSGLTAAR
UniProt Q86YV6, sequence (whole entry, looked up): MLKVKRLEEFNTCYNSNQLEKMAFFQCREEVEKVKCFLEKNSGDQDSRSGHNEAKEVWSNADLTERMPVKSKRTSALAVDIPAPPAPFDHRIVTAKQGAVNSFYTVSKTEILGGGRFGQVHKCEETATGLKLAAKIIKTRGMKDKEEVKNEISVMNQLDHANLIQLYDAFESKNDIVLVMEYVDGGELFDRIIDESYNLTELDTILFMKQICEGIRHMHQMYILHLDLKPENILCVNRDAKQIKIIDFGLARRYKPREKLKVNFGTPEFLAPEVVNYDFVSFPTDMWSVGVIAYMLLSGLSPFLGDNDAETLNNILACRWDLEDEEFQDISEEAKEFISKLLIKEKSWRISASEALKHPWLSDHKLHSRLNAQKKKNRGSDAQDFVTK
UniProt P20794, sequence (whole entry, looked up): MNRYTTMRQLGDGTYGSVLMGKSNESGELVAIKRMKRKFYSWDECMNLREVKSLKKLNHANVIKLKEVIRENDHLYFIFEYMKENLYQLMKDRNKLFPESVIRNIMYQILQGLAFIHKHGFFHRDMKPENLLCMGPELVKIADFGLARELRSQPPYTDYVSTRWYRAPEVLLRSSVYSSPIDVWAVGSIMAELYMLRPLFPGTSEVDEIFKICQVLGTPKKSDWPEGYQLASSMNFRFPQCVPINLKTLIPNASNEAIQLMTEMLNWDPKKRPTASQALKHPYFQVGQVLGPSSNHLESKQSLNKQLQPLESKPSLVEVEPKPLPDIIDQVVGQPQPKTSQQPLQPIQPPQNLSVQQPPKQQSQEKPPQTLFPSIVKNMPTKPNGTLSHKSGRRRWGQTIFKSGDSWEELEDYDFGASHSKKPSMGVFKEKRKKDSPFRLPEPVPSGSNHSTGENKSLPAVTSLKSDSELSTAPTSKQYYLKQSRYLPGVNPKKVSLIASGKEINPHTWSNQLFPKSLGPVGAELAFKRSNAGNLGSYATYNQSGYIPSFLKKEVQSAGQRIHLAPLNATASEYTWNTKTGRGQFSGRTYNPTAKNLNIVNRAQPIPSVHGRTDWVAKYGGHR
UniProt P49761, sequence (whole entry, looked up): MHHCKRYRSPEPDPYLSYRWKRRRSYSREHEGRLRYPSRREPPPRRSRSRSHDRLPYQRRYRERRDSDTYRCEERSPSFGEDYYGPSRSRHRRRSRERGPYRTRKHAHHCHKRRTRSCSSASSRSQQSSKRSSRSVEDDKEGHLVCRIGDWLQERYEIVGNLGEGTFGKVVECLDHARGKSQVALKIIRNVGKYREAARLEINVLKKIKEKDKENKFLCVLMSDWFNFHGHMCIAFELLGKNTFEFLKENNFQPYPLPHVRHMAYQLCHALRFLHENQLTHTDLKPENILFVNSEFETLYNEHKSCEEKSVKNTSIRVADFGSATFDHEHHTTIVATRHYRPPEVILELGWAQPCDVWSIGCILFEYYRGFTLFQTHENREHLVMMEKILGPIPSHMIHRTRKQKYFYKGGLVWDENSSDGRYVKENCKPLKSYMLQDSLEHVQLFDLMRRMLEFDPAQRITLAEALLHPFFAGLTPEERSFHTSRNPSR
UniProt P48730, sequence (whole entry, looked up): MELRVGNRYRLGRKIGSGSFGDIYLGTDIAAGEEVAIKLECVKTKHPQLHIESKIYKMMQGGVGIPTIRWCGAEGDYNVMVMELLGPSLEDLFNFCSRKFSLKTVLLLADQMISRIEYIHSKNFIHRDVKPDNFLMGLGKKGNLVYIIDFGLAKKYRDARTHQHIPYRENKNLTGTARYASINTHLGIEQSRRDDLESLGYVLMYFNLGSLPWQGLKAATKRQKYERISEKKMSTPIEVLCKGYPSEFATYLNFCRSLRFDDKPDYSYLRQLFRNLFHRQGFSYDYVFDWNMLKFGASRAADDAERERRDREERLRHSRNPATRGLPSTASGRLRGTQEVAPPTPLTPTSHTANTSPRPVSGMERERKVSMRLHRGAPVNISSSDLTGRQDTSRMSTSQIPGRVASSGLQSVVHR

Sample 1 — cell line: A-375; tested at: 100 µM; time: 18 h
| Structure (SMILES) | viability [%] |
| --- | --- |
| NCc1ccc(S(N)(=O)=O)cc1 | 86.6 |
| O=c1c(O[C@@H]2O[C@H](CO)[C@H](O)[C@H](O)[C@H]2O)c(-c2ccc(O)c(O)c2)oc2cc(O)cc(O)c12 | 103 |
| Oc1ccc(O)cc1 | 110 |
| CCn1cc(C(=O)O)c(=O)c2cc(F)c(N3CCNCC3)cc21 | 90.2 |
| Cc1ccccc1N1C(=O)c2cc(S(N)(=O)=O)c(Cl)cc2NC1C (centres unmarked) | 105 |
| COc1c2occc2cc2ccc(=O)oc12 | 97.7 |
| CN1C(C(=O)Nc2ccccn2)=C(O)c2sc(Cl)cc2S1(=O)=O | 75.3 |
| OCc1ccccc1O[C@@H]1O[C@H](CO)[C@@H](O)[C@H](O)[C@H]1O | 104 |

Sample 2 — observed: enzyme activity; tested at: 5 µM; reference: untreated control
SMILES: O=C(Nc1cnn(-c2csc(C(=O)NC3COC3)c2)c1)Nc1ccccc1Cl
| target | remaining activity [%] |
| --- | --- |
| Rho-associated protein kinase 1 (ROCK1, Homo sapiens, UniProt Q13464) | 109 |
| Serine/threonine-protein kinase MAK (MAK, Homo sapiens, UniProt P20794) | 98.6 |
| Tyrosine-protein kinase Lyn (LYN, Homo sapiens, UniProt P07948) | 94.4 |
| Cyclin-dependent kinase 2, with cyclin O (CDK2, Homo sapiens, UniProt P24941) | 91.3 |
| Serine/threonine-protein kinase PLK1 (PLK1, Homo sapiens, UniProt P53350) | 94.3 |

Sample 3 — target: panel of 300 human kinases; tested at: 0.5 µM; direction: higher = more selective
| Compound | Gini score |
| --- | --- |
| Fc1ccc(-c2nc3n(c2-c2ccncc2)CCS3)cc1 | 0.75 |
| Cc1nc2cc3nc(-c4cccs4)cnc3cc2n1C | 0.75 |
| CN(C)C[C@H]1CCn2c(c(C3=C(c4cn(C)c5ccccc45)C(=O)NC3=O)c3ccccc32)C1 | 0.76 |
| CC#CC(=O)Nc1cc2c(Nc3ccc(F)c(Cl)c3)ncnc2cn1 | 0.79 |
| O=C1Cc2c([nH]c3ccc([N+](=O)[O-])cc23)-c2ccccc2N1 | 0.65 |
| COc1cc2ncnc(Nc3ccc(O)c(Br)c3)c2cc1OC | 0.63 |

Sample 4 — observed: enzyme activity; mode: inhibitor; tested at: 10 µM
Target: Calcium/calmodulin-dependent protein kinase type II subunit alpha (CAMK2A, Homo sapiens, UniProt Q9UQM7)
UniProt Q9UQM7, sequence (whole entry, looked up): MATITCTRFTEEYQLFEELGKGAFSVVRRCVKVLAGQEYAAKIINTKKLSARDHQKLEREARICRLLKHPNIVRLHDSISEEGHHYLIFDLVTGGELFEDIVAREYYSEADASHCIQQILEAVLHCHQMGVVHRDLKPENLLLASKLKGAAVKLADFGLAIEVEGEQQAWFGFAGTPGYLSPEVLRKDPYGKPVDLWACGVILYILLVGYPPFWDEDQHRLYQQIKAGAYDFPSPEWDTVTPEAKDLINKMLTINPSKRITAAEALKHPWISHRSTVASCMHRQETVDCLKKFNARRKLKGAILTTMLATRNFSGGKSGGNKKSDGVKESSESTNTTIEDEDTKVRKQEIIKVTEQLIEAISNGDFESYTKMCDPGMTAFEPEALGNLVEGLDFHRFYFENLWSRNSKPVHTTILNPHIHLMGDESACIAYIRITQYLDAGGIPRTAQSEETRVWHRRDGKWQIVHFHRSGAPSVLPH
| Structure (SMILES) | inhibition [%] |
| --- | --- |
| C[C@@H]1O[C@H]2O[C@H]3[C@@H](OC[C@H](O)[C@@H]3O)OC(=O)[C@]34CCC(C)(C)C[C@H]3C3=CC[C@@H]5[C@@]6(C)C[C@H](O)[C@H](O[C@@H]7O[C@H](CO)[C@@H](O)[C@H](O)[C@H]7O[C@@H]7OC[C@H](OC(=O)C[C@](C)(O)CC(=O)O[C@@H]1[C@@H](O[C@@H]1OC[C@@H](O)[C@H](O)[C@H]1O)[C@H]2O)[C@H](O)[C@H]7O)[C@@](C)(CO)[C@@H]6CC[C@@]5(C)[C@]3(C)C[C@H]4O | 6 |
| O=C(/C=C/c1ccc(O)c(O)c1)c1ccc(O[C@@H]2O[C@H](CO)[C@@H](O)[C@H](O)[C@H]2O)c(O)c1O | -4 |
| O=C1N[C@@H](Cc2ccc(O)cc2)C(=O)N2CCC[C@@H]12 | -23 |
| COc1ccc2cc1Oc1ccc(cc1)C[C@H]1c3cc(c(OC)cc3CCN1C)Oc1c(OC)c(OC)cc3c1[C@H](C2)N(C)CC3 | -14 |

Sample 5 — host: mouse; medium: microsomes or S9; tested at: 2 µM; time: 0.5 h
| Structure (SMILES) | remaining compound [%] |
| --- | --- |
| Cc1ccccc1S(=O)(=O)Nc1cccc2[nH]ccc12 | 79.2 |
| Cc1cc(C)c(C(=O)c2ccc(C(=O)NC(C)(C)C)cc2)c(C)c1 | 0.601 |
| CC(C)c1nc(OCC(=O)O)c(C#N)c2c1COC(C)(C)C2 | 80 |
| CCn1nc(C)c2ncnc(NC3CCCCCC3)c21 | 0.5 |
| N#Cc1ccc(Cn2cnc3c([nH]c4ccccc43)c2=O)cc1 | 4.6 |

Sample 6 — Compound: O=c1nc(-c2ccccn2)sc2ccccc12; tested at: 1 µM
| target | test | remaining binding |
| --- | --- | --- |
| Cyclin-dependent kinase 19 (CDK19, Homo sapiens, UniProt Q9BWU1) | competition binding | 86% |
| Serine/threonine-protein kinase pim-1 (PIM1, Homo sapiens, UniProt P11309) | binding, competition with immobilised ligand | 85% |
| Casein kinase I isoform alpha-like (CSNK1A1L, Homo sapiens, UniProt Q8N752) | cell-free assay, competition with immobilised ligand | 100% |
| Tyrosine-protein kinase TXK (TXK, Homo sapiens, UniProt P42681) | binding, competition with immobilised ligand | 81% |
| Testis-specific serine/threonine-protein kinase 1 (TSSK1B, Homo sapiens, UniProt Q9BXA7) | binding, competition with immobilised ligand | 100% |
| Glycogen synthase kinase-3 beta (GSK3B, Homo sapiens, UniProt P49841) | cell-free assay, competition with immobilised ligand | 74% |
| Serine/threonine-protein kinase PLK2 (PLK2, Homo sapiens, UniProt Q9NYY3) | binding, competition with immobilised ligand | 95% |
| Mast/stem cell growth factor receptor Kit (KIT, Homo sapiens, UniProt P10721, L576P) | binding, competition with immobilised ligand | 86% |
| Tyrosine-protein kinase HCK (HCK, Homo sapiens, UniProt P08631) | cell-free assay, competition with immobilised ligand | 94% |
| Phosphatidylinositol 5-phosphate 4-kinase type-2 gamma (PIP4K2C, Homo sapiens, UniProt Q8TBX8) | binding, competition with immobilised ligand | 98% |
| Epidermal growth factor receptor (EGFR, Homo sapiens, UniProt P00533, L858R) | cell-free assay, competition with immobilised ligand | 81% |
| Mitogen-activated protein kinase kinase kinase 9 (MAP3K9, Homo sapiens, UniProt P80192) | binding, competition with immobilised ligand | 85% |
| Tyrosine-protein kinase receptor UFO (AXL, Homo sapiens, UniProt P30530) | binding, competition with immobilised ligand | 100% |
| Serine/threonine-protein kinase MARK2 (MARK2, Homo sapiens, UniProt Q7KZI7) | binding, competition with immobilised ligand | 78% |
| Dual specificity mitogen-activated protein kinase kinase 2 (MAP2K2, Homo sapiens, UniProt P36507) | binding, competition with immobilised ligand | 89% |
| Dual specificity protein kinase CLK3 (CLK3, Homo sapiens, UniProt P49761) | binding, competition with immobilised ligand | 96% |
| Casein kinase I isoform delta (CSNK1D, Homo sapiens, UniProt P48730) | cell-free assay, competition with immobilised ligand | 81% |
| Mitogen-activated protein kinase kinase kinase 13 (MAP3K13, Homo sapiens, UniProt O43283) | binding, competition with immobilised ligand | 100% |
| Serine/threonine-protein kinase MRCK beta (CDC42BPB, Homo sapiens, UniProt Q9Y5S2) | cell-free assay, competition with immobilised ligand | 100% |
| Myosin light chain kinase family member 4 (MYLK4, Homo sapiens, UniProt Q86YV6) | cell-free assay, competition with immobilised ligand | 87% |
| Epidermal growth factor receptor (EGFR, Homo sapiens, UniProt P00533, del747-750/T751S) | cell-free assay, competition with immobilised ligand | 74% |
| Epidermal growth factor receptor (EGFR, Homo sapiens, UniProt P00533, T790M) | cell-free assay, competition with immobilised ligand | 100% |
| Casein kinase II subunit alpha' (CSNK2A2, Homo sapiens, UniProt P19784) | cell-free assay, competition with immobilised ligand | 92% |
| Serine/threonine-protein kinase Chk2 (CHEK2, Homo sapiens, UniProt O96017) | binding, competition with immobilised ligand | 100% |
| Serine/threonine-protein kinase WNK1 (WNK1, Homo sapiens, UniProt Q9H4A3) | binding, competition with immobilised ligand | 100% |

Excerpt of the above (sample 3):
| Compound | Gini score |
| --- | --- |
| CN(C)C[C@H]1CCn2c(c(C3=C(c4cn(C)c5ccccc45)C(=O)NC3=O)c3ccccc32)C1 | 0.76 |
| O=C1Cc2c([nH]c3ccc([N+](=O)[O-])cc23)-c2ccccc2N1 | 0.65 |
| Cc1nc2cc3nc(-c4cccs4)cnc3cc2n1C | 0.75 |
| Fc1ccc(-c2nc3n(c2-c2ccncc2)CCS3)cc1 | 0.75 |
| COc1cc2ncnc(Nc3ccc(O)c(Br)c3)c2cc1OC | 0.63 |
| CC#CC(=O)Nc1cc2c(Nc3ccc(F)c(Cl)c3)ncnc2cn1 | 0.79 |
